{"data": "Assay results collected from several papers", "rep main protease": "Replicase polyprotein 1ab, main protease (rep, Severe acute respiratory syndrome coronavirus 2, UniProt P0DTD1)", "Spike glycoprotein": "Spike glycoprotein (Severe acute respiratory syndrome coronavirus 2, UniProt P0DTC2)", "note": "Lines come from different studies, so protocols differ. “And” joins repeats or separate records; there may be more than shown. Numbers after ± are the reported error."}
{"Compound": "O=C(O)CC[C@H]1CC[C@@](c2cc(F)ccc2F)(S(=O)(=O)c2ccc(Cl)cc2)CC1", "target or system": "rep main protease", "test": "reporter gene (Gaussia luciferase), inhibitor", "conditions": "20 µM", "quantity": "inhibition", "value": "0.338%"}
{"Compound": "Nc1ncnc2c([C@@H]3N[C@H](CO)[C@@H](O)[C@H]3O)c[nH]c12", "target or system": "Nipah henipavirus", "test": "viral replication", "system": "HeLa, Malaysia", "conditions": "12.5 µM", "quantity": "inhibition", "value": "1.2%"}
{"Compound": "CCCCSCCCNC(=O)C1CCN(Cc2nc(-c3ccc(CC)cc3)oc2C)CC1", "target or system": "SARS-CoV-2", "test": "cytopathic effect", "system": "USA_WA1/2020", "conditions": "retest 8-point", "quantity": "efficacy", "value": "73%"}
{"Compound": "Cc1cc(O[C@@H]2O[C@H](CO)[C@@H](O)[C@H](O)[C@H]2O)c2c(c1)C(=O)c1cc(O)cc(O)c1C2=O", "target or system": "Spike glycoprotein", "test": "binding, biolayer interferometry", "quantity": "koff", "value": "0.00724 s⁻¹"}
{"Compound": "Nc1ncnc2c1ncn2[C@@H]1CCCN(C(=O)c2ccc(S(=O)(=O)F)cc2)C1", "target or system": "Calmodulin-sensitive adenylate cyclase (cya, Bacillus anthracis, UniProt P40136)", "quantity": "kinact", "value": "0.00065 s⁻¹"}
{"Compound": "O=C(Cc1ccccc1)Nc1nnc(CCSCCc2nnc(NC(=O)Cc3ccccc3)s2)s1", "target or system": "rep main protease", "test": "reporter gene (Gaussia luciferase), inhibitor", "conditions": "20 µM", "quantity": "inhibition", "value": "2.09%"}
{"Compound": "CCc1c(C(=O)C(N)=O)c2c(OCC(=O)O)cccc2n1Cc1ccccc1", "target or system": "Daboia russelii venom phospholipase A2", "test": "enzyme activity, inhibitor", "system": "TN population", "conditions": "0.001 µM, with: NOB substrate", "scale": "baseline: venom alone", "quantity": "remaining activity", "value": "99% and 100%"}
{"Compound": "O=C(NC[C@H](NC(=O)c1cn[nH]c1-c1ccccn1)c1ccc2ccccc2c1)c1cn[nH]c1", "target or system": "rep main protease", "test": "enzyme activity", "conditions": "5 µM, mean of runs", "quantity": "inhibition", "value": "10.9%"}
{"Compound": "COc1ccccc1-c1ccc(CN2CCCC(c3nc4ccc(C)cc4c(=O)[nH]3)C2)cc1 (stereo not drawn)", "target or system": "SARS-CoV-2", "test": "cytopathic effect", "system": "USA_WA1/2020", "conditions": "round 1, 5-point", "quantity": "efficacy", "value": "93.8%"}
{"Compound": "O=C1O[C@H]2[C@@H]3OC(=O)c4cc(O)c(O)c(O)c4-c4c(cc(O)c(O)c4O)C(=O)OC[C@H]2O[C@@H](OC(=O)c2cc(O)c(O)c(O)c2)[C@@H]3OC(=O)c2cc(O)c(O)c3c2[C@@H]2C1=CC(=O)[C@](O)(O3)C2(O)O", "target or system": "Spike glycoprotein", "test": "binding, BLI", "quantity": "kon", "value": "165 M⁻¹ s⁻¹"}
{"Compound": "COc1ccc([C@@H](O)c2cc(-c3ncnc4cc(N5CCOCC5)ccc34)c(F)cc2Cl)nn1", "system": "patients, advanced solid tumours", "conditions": "oral, 100 mg once daily, 10 dosing days, treatment-emergent, with: avelumab, radiotherapy", "quantity": "injury, poisoning, procedural complications incidence", "value": "2%"}
{"Compound": "O=C(NCCCCN1CCOCC1)c1cc2ccccc2o1", "target or system": "rep main protease", "test": "viral replication, mKate2 reporter", "system": "SARS-CoV-2", "conditions": "20 µM", "quantity": "inhibition", "value": "-0.428%"}
{"Compound": "O=C(NC[C@@H]1CC2(CCOCC2)CN1C(=O)C1=Cc2ccccc2OC1)c1cncnc1", "target or system": "rep main protease", "test": "enzyme activity, inhibitor", "conditions": "5 µM, run 1", "quantity": "inhibition", "value": "8.3%"}
{"Compound": "CC[C@H](C)[C@H](NC(=O)[C@H](CC(C)C)NC(=O)[C@H](Cc1c[nH]c2ccccc12)NC(=O)[C@H](CCC(N)=O)NC(=O)[C@@H](NC(=O)[C@H](Cc1ccccc1)NC(=O)[C@H](C)NC(=O)[C@H](CCCCNC(=O)COCCOCCNC(=O)COCCOCCNC(=O)CC[C@H](NC(=O)CCCCCCCCCCCCCCCCCCC(=O)O)C(=O)O)NC(=O)[C@H](CCC(N)=O)NC(=O)[C@H](C)NC(=O)[C@@H](NC(=O)[C@H](CCCCN)NC(=O)[C@H](CC(=O)O)NC(=O)[C@H](CC(C)C)NC(=O)C(C)(C)NC(=O)[C@@H](NC(=O)[C@H](CO)NC(=O)[C@H](Cc1ccc(O)cc1)NC(=O)[C@H](CC(=O)O)NC(=O)[C@H](CO)NC(=O)[C@@H](NC(=O)[C@H](Cc1ccccc1)NC(=O)[C@@H](NC(=O)CNC(=O)[C@H](CCC(=O)O)NC(=O)C(C)(C)NC(=O)[C@@H](N)Cc1ccc(O)cc1)[C@@H](C)O)[C@@H](C)O)[C@@H](C)CC)[C@@H](C)CC)C(C)C)C(=O)N[C@@H](C)C(=O)NCC(=O)NCC(=O)N1CCC[C@H]1C(=O)N[C@@H](CO)C(=O)N[C@@H](CO)C(=O)NCC(=O)N[C@@H](C)C(=O)N1CCC[C@H]1C(=O)N1CCC[C@H]1C(=O)N1CCC[C@H]1C(=O)N[C@@H](CO)C(N)=O", "test": "item: Dyspepsia", "system": "healthy subjects", "conditions": "5/5/8/10 mg titrated, multiple ascending dose", "quantity": "subjects with adverse events", "value": "0%"}
{"Compound": "Cc1ccc(C(C)(C)C(=O)NC[C@H](NC(=O)c2cccnc2)c2ccc3ccccc3c2)cc1", "target or system": "rep main protease", "test": "enzyme activity, inhibitor", "conditions": "5 µM, run 1", "quantity": "inhibition", "value": "10.2%"}
{"Compound": "O=C(O)[C@H]1O[C@@H](Oc2cc(O)c3c(=O)cc(-c4ccc(O)c(O)c4)oc3c2)[C@H](O)[C@@H](O)[C@@H]1O", "target or system": "Spike glycoprotein", "test": "binding, biolayer interferometry", "quantity": "koff", "value": "0.0128 s⁻¹"}
{"Compound": "CN1CCc2nc(C(=O)N[C@@H]3C[C@@H](C(=O)N(C)C)CC[C@@H]3NC(=O)C(=O)Nc3ccc(Cl)cn3)sc2C1", "target or system": "rep main protease", "test": "reporter gene (mKate2), inhibitor", "conditions": "20 µM", "quantity": "inhibition", "value": "-0.699%"}
{"Compound": "Cn1cnc(Cn2c(=O)[nH]/c(=N\\c3cc4cn(C)nc4cc3Cl)n(Cc3cc(F)c(F)cc3F)c2=O)n1", "system": "human, mild renal impairment", "conditions": "oral, 375 mg, hypertriglyceridaemia TEAE, Severe severity", "quantity": "patients with adverse event", "value": "0%"}
{"Compound": "O=C(NC[C@H](NC(=O)c1cncc2ccccc12)c1ccc2ccccc2c1)c1cn[nH]n1", "target or system": "rep main protease", "test": "enzyme activity, inhibitor", "conditions": "5 µM, mean of runs", "quantity": "inhibition", "value": "13.4%"}
{"Compound": "O=C[C@H](C[C@@H]1CCNC1=O)NC(=O)[C@H](CC1CCCCC1)NC(=O)c1cc2ccccc2[nH]1", "system": "dog, plasma", "conditions": "intravenous, 16 mg/kg", "quantity": "AUC", "value": "32400 ng·h/mL"}
{"Compound": "COc1ccc2nc(NC(=O)CSc3nc4ccccc4c4nnnn34)sc2c1", "target or system": "Replicase polyprotein 1ab, nsp14 N7-methyltransferase (rep, Severe acute respiratory syndrome coronavirus 2, UniProt P0DTD1)", "test": "N7-methyltransferase activity, inhibitor, Py-FLINT", "quantity": "Hill slope", "value": "1.47 ± 0.15"}
